Experimental data collected from several papers.
Compare with care: the assays were run in different laboratories.

`Cc1c2c(c(O)c3c(OC(=O)c4cccnc4)cccc13)C(=O)[C@]1(O)C(=O)C(C(N)=O)=C(O)[C@@H](N(C)C)[C@@H]1C2` has a stability time of at least 16 h (LC-MS; Escherichia coli cell lysate).
`CCC[C@H](N[C@@H](C)C(=O)N1[C@H](C(=O)O)C[C@@H]2CCCC[C@@H]21)C(=O)O` has a stability of 95.1% (human whole blood; 0.5 ng/mL, 30 h, 8 °C, autosampler, low QC).
The stability of `O=C(N/N=C/c1ccccc1O)c1ccncc1` is reported as 94.5% (ADS buffer; 4 µM, 7 days, -80 °C, long-term storage).
`Cc1ccc(CNC(=O)c2cc(/C=C/C(=O)O)cc(-c3ccc4ncnn4c3)c2)cc1`: stability “stable” (simulated gastric fluid; 1 h).
`O=C(NCCN1CCCC1)c1cc(-c2ccc(CN3CCOCC3)cc2)nc2ccc(F)cc12` has a stability duration of at most 1 h (human whole blood; ambient, citric acid buffer 100 mM, 1/1 v/v).
`C1=C/COCc2cc(ccc2OCCN2CCCC2)Nc2nccc(n2)-c2cccc(c2)COC/1` — result for “stability relative error”: 0.77% (rat plasma; 600 ng/mL, three freeze-thaw cycles; reference: nominal concentration).
Under “stability relative error”, `CCN(CC)Cc1ccc2cc(COC(=O)Nc3ccc(C(=O)NO)cc3)ccc2c1` is recorded as 99.1% (rat plasma; 5 ng/mL, 4 h, 10 °C, autosampler; reference: nominal concentration).
For `CCOc1c([C@H](C)n2nc(C)c3c(N)ncnc32)cc(Cl)c(F)c1[C@@H]1CNC(=O)C1`, “stability relative error” read 3.5% (rat plasma; 800 ng/mL, 3 weeks, -80 °C, frozen storage; reference: nominal concentration).
For `CC(=O)N[C@H]1[C@H]([C@H](O)[C@H](O)CO)OC(C(=O)O)=C[C@@H]1N=C(N)N`, the stability time was at least 36 h (HBSS; room temperature).
`O=C(O)CN1Cc2cccc(n2)CN(CC(=O)O)Cc2cccc(n2)C1` — result for “stability constant log β”: 7.65 (voltammetry, Nernst equation; Mn(III) complex).
The stability time of `[Cl-].c1csc([I+]c2cccs2)c1` is reported as over 24 h (mouse plasma extract; 4 °C).

Excerpt of the above:
`Cc1ccc(CNC(=O)c2cc(/C=C/C(=O)O)cc(-c3ccc4ncnn4c3)c2)cc1`: stability “stable” (simulated gastric fluid; 1 h).
